Assay results pooled from the literature.
Lines come from different studies, so protocols differ. Several values in a cell are separate wells, animals, samples, runs or records. ± gives the spread as reported.
lacI full length assumed: lacI full length assumed (Escherichia coli, UniProt P03023)
Sequence of UniProt P03023 (whole entry, looked up): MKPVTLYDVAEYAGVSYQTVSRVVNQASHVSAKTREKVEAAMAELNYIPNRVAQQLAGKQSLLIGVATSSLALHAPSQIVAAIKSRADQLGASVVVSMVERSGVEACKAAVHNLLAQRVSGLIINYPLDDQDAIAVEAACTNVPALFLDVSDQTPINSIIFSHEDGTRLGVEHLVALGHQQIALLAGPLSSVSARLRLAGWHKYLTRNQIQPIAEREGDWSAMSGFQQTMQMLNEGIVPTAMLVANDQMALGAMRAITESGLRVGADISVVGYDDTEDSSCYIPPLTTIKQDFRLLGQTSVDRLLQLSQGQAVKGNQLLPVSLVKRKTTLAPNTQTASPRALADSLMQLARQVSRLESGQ
RAP1/Yku70/Yku80: RAP1/Yku70/Yku80 (Saccharomyces cerevisiae)
Sequence of UniProt P48067 (whole entry, looked up): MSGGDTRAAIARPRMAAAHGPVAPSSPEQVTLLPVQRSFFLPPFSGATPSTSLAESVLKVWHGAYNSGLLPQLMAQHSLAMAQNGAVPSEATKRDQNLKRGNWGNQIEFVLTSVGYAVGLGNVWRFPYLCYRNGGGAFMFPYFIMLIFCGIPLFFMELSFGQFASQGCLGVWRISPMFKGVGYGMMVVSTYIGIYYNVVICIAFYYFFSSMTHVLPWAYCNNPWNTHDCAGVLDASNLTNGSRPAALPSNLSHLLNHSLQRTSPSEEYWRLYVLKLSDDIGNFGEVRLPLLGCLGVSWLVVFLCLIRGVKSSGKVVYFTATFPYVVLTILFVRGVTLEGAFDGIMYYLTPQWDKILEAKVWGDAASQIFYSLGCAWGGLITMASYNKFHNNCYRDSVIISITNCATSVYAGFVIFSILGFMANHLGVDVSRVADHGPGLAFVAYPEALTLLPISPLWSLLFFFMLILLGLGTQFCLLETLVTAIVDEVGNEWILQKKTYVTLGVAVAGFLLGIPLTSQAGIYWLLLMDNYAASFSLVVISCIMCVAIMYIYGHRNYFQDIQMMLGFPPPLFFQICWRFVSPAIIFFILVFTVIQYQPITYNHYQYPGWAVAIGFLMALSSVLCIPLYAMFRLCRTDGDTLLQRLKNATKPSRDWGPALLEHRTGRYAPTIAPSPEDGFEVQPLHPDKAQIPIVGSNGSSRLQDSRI
Sequence of UniProt Q64663 (whole entry, unmodified, looked up): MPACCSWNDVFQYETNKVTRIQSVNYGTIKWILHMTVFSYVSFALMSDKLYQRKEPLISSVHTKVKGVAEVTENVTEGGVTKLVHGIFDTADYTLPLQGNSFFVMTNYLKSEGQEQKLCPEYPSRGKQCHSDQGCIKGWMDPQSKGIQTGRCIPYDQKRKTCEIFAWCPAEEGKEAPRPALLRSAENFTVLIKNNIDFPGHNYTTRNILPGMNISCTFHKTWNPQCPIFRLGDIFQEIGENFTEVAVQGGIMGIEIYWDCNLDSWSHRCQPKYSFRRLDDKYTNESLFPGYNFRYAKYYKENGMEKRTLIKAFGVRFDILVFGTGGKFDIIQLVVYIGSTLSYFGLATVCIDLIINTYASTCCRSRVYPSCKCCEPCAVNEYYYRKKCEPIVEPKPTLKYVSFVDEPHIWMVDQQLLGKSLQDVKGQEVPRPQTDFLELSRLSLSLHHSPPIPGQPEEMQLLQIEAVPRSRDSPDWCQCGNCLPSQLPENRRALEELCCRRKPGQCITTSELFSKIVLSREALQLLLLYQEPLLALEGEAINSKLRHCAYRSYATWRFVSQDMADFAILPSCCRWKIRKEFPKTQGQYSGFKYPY
Sequence of UniProt Q15717 (whole entry, looked up): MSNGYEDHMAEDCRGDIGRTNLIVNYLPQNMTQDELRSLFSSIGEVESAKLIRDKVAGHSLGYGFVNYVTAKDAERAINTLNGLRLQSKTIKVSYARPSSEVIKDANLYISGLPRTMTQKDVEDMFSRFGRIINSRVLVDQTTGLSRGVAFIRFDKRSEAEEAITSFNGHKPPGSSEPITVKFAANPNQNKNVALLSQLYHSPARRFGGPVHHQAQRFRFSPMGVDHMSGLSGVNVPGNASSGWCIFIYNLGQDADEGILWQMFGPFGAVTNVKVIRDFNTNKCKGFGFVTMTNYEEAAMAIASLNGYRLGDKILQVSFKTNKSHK
Sequence of UniProt P60842 (whole entry, looked up): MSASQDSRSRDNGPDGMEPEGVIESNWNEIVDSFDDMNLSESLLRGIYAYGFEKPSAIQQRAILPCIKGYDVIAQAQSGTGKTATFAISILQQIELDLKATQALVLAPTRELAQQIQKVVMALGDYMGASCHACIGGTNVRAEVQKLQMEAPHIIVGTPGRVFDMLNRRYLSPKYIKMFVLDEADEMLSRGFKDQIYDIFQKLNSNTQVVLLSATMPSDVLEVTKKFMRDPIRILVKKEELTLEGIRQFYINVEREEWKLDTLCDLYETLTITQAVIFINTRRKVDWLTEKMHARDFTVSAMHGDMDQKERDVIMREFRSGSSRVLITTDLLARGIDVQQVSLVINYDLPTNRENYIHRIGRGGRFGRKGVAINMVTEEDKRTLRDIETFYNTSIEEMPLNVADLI
Sequence of UniProt G5EF15 (whole entry, looked up): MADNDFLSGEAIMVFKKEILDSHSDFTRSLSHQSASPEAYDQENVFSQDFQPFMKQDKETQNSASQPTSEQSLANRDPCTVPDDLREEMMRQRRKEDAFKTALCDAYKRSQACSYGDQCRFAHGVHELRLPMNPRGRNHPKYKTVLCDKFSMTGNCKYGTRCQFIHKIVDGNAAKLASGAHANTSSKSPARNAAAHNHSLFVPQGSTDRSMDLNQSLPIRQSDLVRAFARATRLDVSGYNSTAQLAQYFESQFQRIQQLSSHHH
Sequence of UniProt Q6R0H1 (whole entry, looked up): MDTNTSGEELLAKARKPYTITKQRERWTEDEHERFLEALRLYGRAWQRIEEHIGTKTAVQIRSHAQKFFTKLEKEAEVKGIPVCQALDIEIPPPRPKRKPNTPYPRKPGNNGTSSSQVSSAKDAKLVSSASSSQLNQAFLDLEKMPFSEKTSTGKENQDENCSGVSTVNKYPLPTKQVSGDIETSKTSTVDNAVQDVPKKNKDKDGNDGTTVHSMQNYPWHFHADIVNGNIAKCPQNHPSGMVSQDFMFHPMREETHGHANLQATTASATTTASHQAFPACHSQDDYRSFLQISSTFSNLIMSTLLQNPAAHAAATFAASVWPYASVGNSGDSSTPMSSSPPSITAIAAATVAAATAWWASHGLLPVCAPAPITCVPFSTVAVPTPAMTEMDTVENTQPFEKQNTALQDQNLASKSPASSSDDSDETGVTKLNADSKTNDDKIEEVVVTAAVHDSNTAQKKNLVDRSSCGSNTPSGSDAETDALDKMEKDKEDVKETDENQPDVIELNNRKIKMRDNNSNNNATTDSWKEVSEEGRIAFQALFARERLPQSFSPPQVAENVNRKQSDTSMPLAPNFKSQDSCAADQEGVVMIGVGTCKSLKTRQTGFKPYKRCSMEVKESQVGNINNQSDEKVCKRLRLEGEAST
Sequence of UniProt P55265 (whole entry, looked up): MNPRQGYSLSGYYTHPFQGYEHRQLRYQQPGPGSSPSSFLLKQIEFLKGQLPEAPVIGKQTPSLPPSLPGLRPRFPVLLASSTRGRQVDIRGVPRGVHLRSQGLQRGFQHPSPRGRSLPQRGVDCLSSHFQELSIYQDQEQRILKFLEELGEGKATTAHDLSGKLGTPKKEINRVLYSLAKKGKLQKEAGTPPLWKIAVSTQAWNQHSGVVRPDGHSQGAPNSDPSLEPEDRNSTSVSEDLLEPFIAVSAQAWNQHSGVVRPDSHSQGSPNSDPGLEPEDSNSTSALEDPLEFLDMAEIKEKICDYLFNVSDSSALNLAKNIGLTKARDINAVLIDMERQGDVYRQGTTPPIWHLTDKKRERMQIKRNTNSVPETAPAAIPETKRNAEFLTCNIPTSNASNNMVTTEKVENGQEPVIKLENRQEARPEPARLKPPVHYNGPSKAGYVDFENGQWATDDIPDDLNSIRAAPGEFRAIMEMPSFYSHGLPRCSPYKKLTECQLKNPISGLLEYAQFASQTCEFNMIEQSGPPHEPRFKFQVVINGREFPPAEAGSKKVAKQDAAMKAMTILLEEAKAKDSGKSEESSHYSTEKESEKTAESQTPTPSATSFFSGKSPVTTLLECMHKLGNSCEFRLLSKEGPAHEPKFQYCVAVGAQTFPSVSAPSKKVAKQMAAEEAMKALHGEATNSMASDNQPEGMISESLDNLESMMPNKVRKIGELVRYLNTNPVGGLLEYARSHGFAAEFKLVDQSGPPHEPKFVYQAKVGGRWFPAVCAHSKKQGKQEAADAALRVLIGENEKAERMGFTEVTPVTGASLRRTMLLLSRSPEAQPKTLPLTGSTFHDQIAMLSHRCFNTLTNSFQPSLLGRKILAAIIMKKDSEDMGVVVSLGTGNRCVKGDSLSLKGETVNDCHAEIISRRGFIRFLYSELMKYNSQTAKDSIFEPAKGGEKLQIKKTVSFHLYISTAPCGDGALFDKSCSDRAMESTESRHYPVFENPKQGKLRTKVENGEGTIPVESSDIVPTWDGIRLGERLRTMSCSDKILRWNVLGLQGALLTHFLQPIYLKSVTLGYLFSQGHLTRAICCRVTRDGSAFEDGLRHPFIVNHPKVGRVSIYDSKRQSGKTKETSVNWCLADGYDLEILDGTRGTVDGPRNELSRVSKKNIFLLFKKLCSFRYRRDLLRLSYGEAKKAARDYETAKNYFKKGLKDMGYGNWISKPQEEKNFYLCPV
Sequence of UniProt P48432 (whole entry, looked up): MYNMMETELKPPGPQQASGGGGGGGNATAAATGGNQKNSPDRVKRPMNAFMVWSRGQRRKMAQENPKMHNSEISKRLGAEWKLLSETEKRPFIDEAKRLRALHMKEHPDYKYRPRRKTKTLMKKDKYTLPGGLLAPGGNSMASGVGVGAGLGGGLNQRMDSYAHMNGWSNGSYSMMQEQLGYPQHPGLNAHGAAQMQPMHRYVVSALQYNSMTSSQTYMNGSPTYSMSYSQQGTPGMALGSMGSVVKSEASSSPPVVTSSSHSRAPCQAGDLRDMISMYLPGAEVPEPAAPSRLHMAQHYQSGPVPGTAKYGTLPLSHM
Sequence of UniProt P27245 (whole entry, unmodified, looked up): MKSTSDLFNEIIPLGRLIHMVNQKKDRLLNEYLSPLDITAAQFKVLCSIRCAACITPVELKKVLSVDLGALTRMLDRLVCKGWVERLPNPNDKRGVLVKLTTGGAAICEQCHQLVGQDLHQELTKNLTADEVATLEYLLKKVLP

AAAAAAAA (ssRNA)  binding (NCL 300-650 (Homo sapiens, UniProt P19338); protein microarray; RNA): no binding
GGTGGTGGTGGTGGTGGT (ssDNA)  binding (recA full length assumed F204Y (Escherichia coli, UniProt P0A7G6); fluorescence anisotropy; single-stranded DNA; together with: ATPγS): binds
CATGCTCCCAAAGCTTGAAGGAAAAGCTTAGGTATAGTTA (dsDNA)  binding (NAC domain-containing protein full length assumed (Musa acuminata, UniProt A0A804JLK1); EMSA; double-stranded DNA, one strand shown): binds
CTTCTTTATTTTATTGTCTGAACGAATAAAAATCCATTATCT (dsDNA)  binding (Transcription factor RF2b full length assumed (Ziziphus jujuba, UniProt A0A6P3ZIC3); EMSA; double-stranded DNA, one strand shown): no binding
DNA 1 CCAGGAGCAAGGCCGGAAACGTCACCAATGCAACGATCAGCCAACTAAACTAGGACATCT / DNA 2 AGATGTCCTAGTTTAGTTGGCTGATCGTTG (dsDNA; 5' 30 nt overhang; 3'-recessed)  binding (tnsE 1-538 (Escherichia coli, UniProt P05845); native MS; double-stranded DNA): binds
GCATATGGCAGCTTGAACAGTGAGCGCAACGCAATTTTGCAGCGA (dsDNA)  binding (lacI full length assumed; BLI; double-stranded DNA, one strand shown): binds
GCTTGGGAGGGCCATCTGGCATTG (dsDNA)  binding (Hand2 full length assumed N105A/E108A (Mus musculus, UniProt Q61039); EMSA; double-stranded DNA, one strand shown): no binding
AGGAGCGTGACACGTAAGACAAAAAG (dsDNA)  binding (HY5 1-158 (Solanum lycopersicum, UniProt Q9SM50); EMSA; double-stranded DNA, one strand shown): binds
TGCGATTCGTTGTATCCGTAACATTTAACAATCTCGTTTTGTTTTTCTTCTGTTCCTCTA (dsDNA)  binding (LHY full length assumed (Arabidopsis thaliana, UniProt Q6R0H1); EMSA; double-stranded DNA, one strand shown): binds
CATCGCATTGAACAAAACTTGAACCGATTTAGCAAAACGTGGCATCGGTCAATTCATTCATTTGACTTATACTTGCCTGGGCAATATTATCCCCTGCAAC (dsDNA)  binding (marR residues 1-144 C47S/C51S/C54S/C108S/C111S (Escherichia coli, UniProt P27245); EMSA; double-stranded DNA, one strand shown): binds
methyl-β-cyclodextrin  glycine uptake rate (SLC6A9 (Homo sapiens, UniProt P48067); transport activity, [3H]glycine uptake; 2.5 mg/mL, 1 min, together with: glycine 150 µM; higher = more transport): 37.9 a.u. and 50.6 a.u. and 39.3 a.u. and 50.1 a.u. and 38.8 a.u.
BzATP  normalized current (P2X purinoceptor 7 (P2rx7, Rattus norvegicus, UniProt Q64663, Q143A/R125A); ion current, agonist, two-electrode voltage clamp; Xenopus laevis oocytes; 1.2 µM; baseline: highest concentration response): 0.00962 and 0.011 and 0.0187
TAGCTTCCTCTTCCACCTCTGCCTCTGCCTCACC (dsDNA)  binding (C2H2-type domain-containing protein full length assumed (Triticum aestivum, UniProt A0A3B6KUA9); EMSA; double-stranded DNA, one strand shown; together with: ZnCl2): binds
AAAATTCCGTGGAAAACC (dsDNA)  binding (PDR3 1-184 (Saccharomyces cerevisiae, UniProt P33200); competition; double-stranded DNA, one strand shown): binds
colistin  MIC (Pseudomonas aeruginosa; broth microdilution; clinical isolate RKI-No_221/16): 1 µg/mL
ACCAAGCTGGATGCGGAGCCGCCGCCGCCGCCG (dsDNA; blunt)  binding (WT1 zinc finger domain 323-435 (Homo sapiens); EMSA; double-stranded DNA, one strand shown): no binding
GGWVEKETYY  normalised SPR binding response (human MAGI1-3/6 PDZ construct (MBP fusion); surface plasmon resonance; peptide; concentration not given; higher = stronger binding): 0 normalised RU
AGTTGGCAAGTC (dsDNA)  binding (NFIB 14-176 R117A (Homo sapiens, UniProt O00712); BLI; double-stranded DNA, one strand shown; together with: Zn2+ 1 mM): no binding
AGAAGAAGAAGAAGA (ssRNA)  binding (EIF4A1 1-406 (Homo sapiens, UniProt P60842); fluorescence polarization; RNA; together with: ATP, silvestrol 10 µM): binds
TGTTGTGTGGAATTGTGAGCGGATAACAATTTCACACAGG (dsDNA (Escherichia coli); blunt)  binding (lacI full length assumed; filter binding; double-stranded DNA, one strand shown; no effector): binds
GCAGGAGAAACACGTGTTGCCACTTT (dsDNA)  binding (HY5/CaM2 1-158; 1-149 (Solanum lycopersicum); EMSA; double-stranded DNA, one strand shown; together with: CaCl2 5 mM): binds
DNA 1 TTGCATATTTAAAACATGTTGAGCTACAGCACCAGATTCAGCAATTAAGCTCTAAGCCATCCGCAAAAATGACCTCTTATCAA / DNA 2 TTGATAAGAGGTCATTTTTGCGGATGGCTTAGAGCTTAATTGCTGAATCTGGTGCTGTAGCTCAACATGTTTTAAATATGCAATGAC (dsDNA; 3' 4 nt overhang)  binding (MGM101 23-269 (Saccharomyces cerevisiae, UniProt P32787); native MS; double-stranded DNA): binds
Peginesatide  phosphorylation level (UT7/EPO; tyrosine phosphorylation, LC-MS/MS phosphoproteomics, trypsin, measured: STAT3 tyrosine 704; 10 nM, 15 min, together with: 10 U/mL EPO; baseline: vehicle): 5.5 fold
CGCGCGCGCGCG (XNA; LNA blunt self-complementary duplex)  binding (ADAR 133-199 (Homo sapiens, UniProt P55265); AUC sedimentation velocity; modified nucleic acid, one strand shown): binds
UUAUUGAUUGU (ssRNA)  binding (pos-1 97-173 (Caenorhabditis elegans, UniProt G5EF15); NMR 15N-1H HSQC; RNA): binds
GACTCTTTGTTTGGC (dsDNA; blunt)  binding (SOX2 39-118 Y108A (Homo sapiens, UniProt P48431); NMR; double-stranded DNA, one strand shown): binds
AUUUAUUUAUUUAUUUAUUUAUUUAUUUAUUUAUUUAUUUA (ssRNA)  binding (NR1I2 (Homo sapiens, UniProt O75469); EMSA; RNA; 200 nM RNA): no binding
AAGGTGTGTGGGTGTGGTAA (dsDNA)  binding (RAP1/Yku70/Yku80; EMSA; double-stranded DNA, one strand shown): binds
ATACGGGAAGTTTGAGGCGCCGTCCACTTGACCATAC (dsDNA)  binding (ERF-D2 full length assumed (Solanum lycopersicum, UniProt A0A3Q7JX06); EMSA; double-stranded DNA, one strand shown; competitor): binds
AGTCCGGGGGTTCCGTTAATGTTTAATCAGATAGGATC (dsDNA)  binding (HNF1A 1-631 (Homo sapiens, UniProt P20823); SPR; double-stranded DNA, one strand shown; without NaHS): binds
GCATGCCTCGAGTCTAGAGGTACCAGATCTGATCCTCTAGAGTCGACC (dsDNA)  binding (MGMT full length assumed (Homo sapiens, UniProt P16455); sedimentation velocity AUC; double-stranded DNA, one strand shown; 500 nM): binds
CCCCATCACCCAATCCCAGCCCTCCACGTGTCACCAACCCCATGGCAAACCTCC (dsDNA)  binding (GLK1 1-455 (Oryza sativa, UniProt Q5Z5I4); EMSA; double-stranded DNA, one strand shown): binds
ATTTTTATTTTATTTTT (ssDNA)  binding (ELAVL1 1-326 (Homo sapiens, UniProt Q15717); BLI; single-stranded DNA; pH 7.4): binds
ATAAGTCACATGATGATATTTGATTTTATTATATTTTTAAAAAAAGTAAAAAATAAAAAGTAGTTTATTTTTAAAAAATAAAATTTAAAATATTTCACAAAATGATTTCCGAA (dsDNA)  binding (CENP-I 1-229 R216D (Thermochaetoides thermophila, UniProt G0SFF7); EMSA; double-stranded DNA, one strand shown): binds
CTCAATTCTGTCCTATTTCTTGTATATAAAACTTCTCCATCTTGTAATCG (dsDNA)  binding (VAL1 289-396 (Arabidopsis thaliana, UniProt Q8W4L5); EMSA; double-stranded DNA, one strand shown): no binding
DNA 1 AAGGTGTGTGGGTGTGGTAATTTTTTT / DNA 2 ATTACCACACCCACACACCTT (dsDNA; 3' 6 nt overhang)  binding (RAP1/Yku70/Yku80; EMSA; double-stranded DNA): binds
TCCAAGCGGGATGCGGAGCCGCCGCCGCCGCCG (dsDNA; blunt)  binding (WT1 zinc finger domain 323-435 (Homo sapiens); EMSA; double-stranded DNA, one strand shown): no binding
GTGTTCGGACTCTGCCTCAAGACGGTAGTCAACGTGCTTG (dsDNA)  binding (XRS2 1-325 K54E (Saccharomyces cerevisiae, UniProt P33301); EMSA; double-stranded DNA, one strand shown; near wild-type): binds
ATTATTCCCGATGGAATTTCAAATGCT (dsDNA)  binding (WRKY domain-containing protein 1-296 (Camellia sinensis, UniProt A0A4S4EXI7); EMSA; double-stranded DNA, one strand shown): no binding
epoetin alfa  mRNA level (UT7/EPO; microarray, measured: SOCS3 mRNA (probe set 227697_at); 5 U/mL, 90 min; baseline: vehicle): 74.8 fold
CTTTATAAGAATAATTGTTCACTC (dsDNA)  binding (SPL2 1-415 (Malus domestica, UniProt D9ZJC1); EMSA; double-stranded DNA, one strand shown): no binding
DNA 1 CACTGGCCGTCTTACGGTCGCTCTGCTCGACG / DNA 2 CGACCGTAAGACGGCCAGTG (dsDNA; 20 bp, 3' 12 nt overhang)  Kd (RECQL 63-592 T511A (Bos taurus, UniProt A0JN36); fluorescence anisotropy; double-stranded DNA; together with: Mg2+ 3 mM): 94.1 ± 39.4 nM
UUUUU (ssRNA)  binding (Rc3h1 411-454 (Mus musculus, UniProt Q4VGL6); NMR; RNA): binds
GGTTAGGGTTAG (ssDNA; 5'-phosphate)  binding (POT1 1-299 F62A (Homo sapiens, UniProt Q9NUX5); EMSA; single-stranded DNA): no binding
GSGAGSETKM  binding intensity (human SCRIB PDZ3-4 tandem (MBP fusion); automated holdup; peptide, crude extract; concentration not given, uncorrected, unit not given; baseline: biotin control resin, higher = stronger binding): 0.0724
GGCGGCGGCATTGTCCGGCGCGCGG (dsDNA)  binding (Sox2 41-119 (Mus musculus, UniProt P48432); EMSA; double-stranded DNA, one strand shown): binds
11-deoxycorticosterone  rate constant k-1 (human CYP11B2; substrate, stopped-flow kinetics; 4-state closed model, together with: adrenodoxin 10-fold excess): 622 min⁻¹

Repeated from above:
CTTCTTTATTTTATTGTCTGAACGAATAAAAATCCATTATCT (dsDNA)  binding (Transcription factor RF2b full length assumed (Ziziphus jujuba, UniProt A0A6P3ZIC3); EMSA; double-stranded DNA, one strand shown): no binding
DNA 1 AAGGTGTGTGGGTGTGGTAATTTTTTT / DNA 2 ATTACCACACCCACACACCTT (dsDNA; 3' 6 nt overhang)  binding (RAP1/Yku70/Yku80; EMSA; double-stranded DNA): binds
methyl-β-cyclodextrin  glycine uptake rate (SLC6A9 (Homo sapiens, UniProt P48067); transport activity, [3H]glycine uptake; 2.5 mg/mL, 1 min, together with: glycine 150 µM; higher = more transport): 37.9 a.u. and 50.6 a.u. and 39.3 a.u. and 50.1 a.u. and 38.8 a.u.
colistin  MIC (Pseudomonas aeruginosa; broth microdilution; clinical isolate RKI-No_221/16): 1 µg/mL
